Results pooled from the literature.
Compare with care: the assays were run in different laboratories. Numbers after ± are the reported error.
Cell line: HCT-116

CNS(=O)(=O)Nc1nccc(Cc2c(C)c3ccc(Oc4ncccc4F)cc3oc2=O)c1F — IC50 (cell viability; 7 days): 0.0775 µM
O=[P@]1(c2ccccc2)CC[C@H](O)CC1 — IC50 (cell growth or viability, MTT; 72 h): > 100 µM
Cc1cc(C)[nH]n1 — IC50 (cell growth, MTT; 24 h): > 800 µM
CCc1ccc(/N=C2\C(=O)N(Cc3ccc([N+](=O)[O-])cc3)c3ccccc32)cc1 — IC50 (cell growth or viability, MTT; 48 h): 6.85 µM
CN1CCC(N[C@@H]2CCc3[nH]c4c(C(N)=O)ccc(-c5ccccc5Cl)c4c3C2)CC1 — IC50 (cell growth or viability): 0.00012 µM
O=[N+]([O-])c1ccc(O)c(/C=N/Nc2ccccc2)c1 — IC50 (cell growth or viability, MTT; 24 h): 15.4 µM
O=C1/C(=N\c2ccc(Cl)cc2Br)c2ccccc2N1C(=O)c1ccccc1 — IC50 (cell growth or viability, MTT; 48 h): > 100 µM
Cc1cc(C)n(CO)n1 — IC50 (cell growth or viability, MTT; 24 h): 49.8 µM
O=C1CCP(=O)(c2ccccc2)CC1 — IC50 (cell growth or viability, MTT; 72 h): > 100 µM
O=C1/C(=N\c2ccc(Cl)cc2Br)c2ccccc2N1Cc1ccccc1 (mixture of isomers) — IC50 (cell growth or viability, MTT; 48 h): 16.7 µM
[BH3-][P@+]1(c2ccccc2)CC[C@@H](O)CC1 — IC50 (cell growth or viability, MTT; 72 h): > 100 µM
CCOC(=O)/C=C1\S/C(=N\N=C\c2cccc3cc4ccccc4nc23)N(C)C1=O — IC50 (cell growth or viability, MTT; 48 h): 46.6 µM
[BH3-][P+]1(c2ccccc2)CCCCC1 — IC50 (cell growth or viability, MTT; 72 h): 49 µM
CC(=O)OC[C@H]1O[C@@H](Oc2ccc(C#[C][Pt+])cc2)[C@H](OC(C)=O)[C@@H](OC(C)=O)[C@@H]1OC(C)=O.O=S(=O)([O-])C(F)(F)F.c1ccc(-c2cccc(-c3ccccn3)n2)nc1 — IC50 (cell growth or viability; 24 h): > 100 µM
CN(C)c1ccc(CCC(=O)N2C(=O)C3(NC(c4ccc(F)cc4)C4(C(=O)Nc5ccccc54)N3Cc3ccc(F)cc3)c3ccccc32)cc1 (stereo not shown) — IC50 (cell growth or viability, MTT; 48 h): 30.7 µM
Cc1nc(Nc2ccc3c(c2)/C(=C/c2cn(C)c4ccccc24)C(=O)N3C)c2ccccc2n1 — IC50 (cell growth or viability, MTT): 1.88 µM
NC(=O)c1ccc(-c2ccccc2Cl)c2c3c([nH]c12)CC[C@H](N)C3 — IC50 (cell growth or viability): 0.00644 µM
CSc1sc2c3ccccc3c3ccccc3[n+]2c1C(=O)c1ccccc1 — IC50 (cell growth or viability, MTT; 72 h): 27.4 µM
CN1C(=O)CS/C1=N\N=C\c1cccc2cc3ccccc3nc12 — IC50 (cell growth or viability, MTT; 48 h): 32 µM
CC(C)=CC1OC(C)(C)C2C=C3C(=O)C(Cl)=CC(O)C3C3C(O)C4OC4C(=O)C132 (stereo not shown) — IC50 (cell growth or viability, MTS): 1.31 µM
O=C(CCc1ccccc1)N1C(=O)C2(NC(c3ccc(F)cc3)C3(C(=O)Nc4ccccc43)N2Cc2ccc(F)cc2)c2ccccc21 (stereo not shown) — IC50 (cell growth or viability, MTT; 48 h): 38.8 µM
Cc1nc(N(C)c2ccc3c(c2)/C(=C/c2ccccc2)C(=O)N3C)c2ccccc2n1 — IC50 (cell growth or viability, MTT): 5.39 µM
CCCCCCCC/C=C/CCCCCCCC(=O)[O][Pt-2]1([OH])([Cl])([NH+]=C(CC)N(C)CCNc2c3ccccc3[nH+]c3ccccc23)[NH]CCC[NH]1.O=[N+]([O-])O.O=[N+]([O-])O — IC50 (cell growth or viability, MTS; 72 h): 0.14 µM
CCNC(=S)NN=Cc1c2ccccc2cc2ccccc12.Cc1ccc(C(C)C)cc1.[Cl-].[Cl-].[Ru+2] — IC50 (cytotoxicity, MTS; 48 h): 248 ± 8 µM
O=C1/C(=N\c2cccc(Cl)c2)c2ccccc2N1Cc1ccccc1 — IC50 (cell growth or viability, MTT; 48 h): 1.08 µM
Oc1c(Cl)cc(Cl)cc1/C=N/Nc1ncnc2sc3c(c12)CCCC3 — IC50 (cell viability; 48 h): 0.577 µM
O=C1Nc2ccccc2/C1=N/c1ccc(Cl)cc1Br — IC50 (cell growth or viability, MTT; 48 h): 12.6 µM
CCC(=[N][Pt-2]1([Cl])[NH2+]CCC[NH2+]1)N(C)CCNc1c2ccccc2nc2ccccc12.O=[N+]([O-])O.O=[N+]([O-])O — IC50 (cell growth or viability, MTS; 72 h): 2.52 µM
COc1ccccc1/C=C1\C(=O)N(C)c2ccc(Nc3nc(C)nc4ccccc34)cc21 — IC50 (cell growth or viability, MTT): 12.8 µM
CCOC(=O)/C=C1\S/C(=N\N=C\c2cccc3cc4ccccc4nc23)N(c2ccc([N+](=O)[O-])cc2)C1=O — IC50 (cell growth or viability, MTT; 48 h): > 50 µM
Cc1nc(Nc2ccc3c(c2)/C(=C/c2c[nH]c4ccccc24)C(=O)N3)c2ccccc2n1 — IC50 (cell growth or viability, MTT): 2.34 µM
COc1ccc(N2C(=O)CS/C2=N\N=C\c2cccc3cc4ccccc4nc23)cc1 — IC50 (cell growth or viability, MTT; 48 h): 39.8 µM
C=CC(=O)N1CCc2ccc(-n3c(=O)ccc4cnc5ccc(-c6cnn(C)c6)cc5c43)cc21 — IC50 (cell growth or viability): 3.24 µM
CCOC(=O)/C=C1\S/C(=N\N=C\c2cccc3cc4ccccc4nc23)N(c2ccccc2)C1=O — IC50 (cell growth or viability, MTT; 48 h): 28.4 µM
Cc1ccccc1/C=C/C(=O)N[C@@H](CO)C(=O)N[C@H](C(=O)N[C@H](Cc1ccccc1)C(=O)O)[C@@H](C)O — IC50: > 20 µM
CCCN1C(=O)CS/C1=N\N=C\c1cccc2cc3ccccc3nc12 — IC50 (cell growth or viability, MTT; 48 h): 38.1 µM
O=C1/C(=N\c2ccccc2Br)c2ccccc2N1Cc1ccc([N+](=O)[O-])cc1 — IC50 (cell growth or viability, MTT; 48 h): 7.82 µM
CC(C)CN1C(=O)CS/C1=N\N=C\c1cccc2cc3ccccc3nc12 — IC50 (cell growth or viability, MTT; 48 h): > 50 µM
CCCCCCCCCCCCCCCCCC(=O)[O][Pt-2]1([OH])([Cl])([NH+]=C(CC)N(C)CCNc2c3ccccc3[nH+]c3ccccc23)[NH]CCC[NH]1.O=[N+]([O-])O.O=[N+]([O-])O — IC50 (cell growth or viability, MTS; 72 h): 0.11 µM
COc1ccccc1/C=C1\C(=O)N(C)c2ccc(N(C)c3nc(C)nc4ccccc34)cc21 — IC50 (cell growth or viability, MTT): 0.53 µM
Cc1nc2ccc(Br)cc2c(=O)n1N — IC50 (cytotoxicity, LDH release; 24 h, 50% viability reduction): 758 ± 19.5 µM
CCOC(=O)/C=C1\S/C(=N\N=C\c2cccc3cc4ccccc4nc23)N(c2cccc(OC)c2)C1=O — IC50 (cell growth or viability, MTT; 48 h): > 50 µM
COc1cc(-n2cc3cc(F)cc(C(N)=O)c3n2)cc(Cl)c1C1CC(O)(CCO)Cc2ccccc21 (stereo not shown) — IC50 (cell growth or viability, MTT; 72 h): 0.07 µM
